Assay results collected from several papers.
Lines come from different studies, so protocols differ. Numbers after ± are the reported error.
Proteasome subunit alpha type-2/Proteasome subunit alpha type-6 20S proteasome: Proteasome subunit alpha type-2/Proteasome subunit alpha type-6, 20S proteasome (Homo sapiens, UniProt P25787+P60900)
Chain of UniProt P60900 (whole entry, looked up): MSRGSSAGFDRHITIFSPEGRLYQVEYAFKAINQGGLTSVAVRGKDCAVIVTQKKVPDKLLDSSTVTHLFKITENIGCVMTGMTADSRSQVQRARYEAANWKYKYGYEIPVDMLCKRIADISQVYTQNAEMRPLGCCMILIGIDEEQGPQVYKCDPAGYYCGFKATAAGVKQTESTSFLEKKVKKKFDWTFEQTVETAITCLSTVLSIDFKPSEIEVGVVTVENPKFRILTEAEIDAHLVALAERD
Chain of UniProt P25787 (whole entry, looked up): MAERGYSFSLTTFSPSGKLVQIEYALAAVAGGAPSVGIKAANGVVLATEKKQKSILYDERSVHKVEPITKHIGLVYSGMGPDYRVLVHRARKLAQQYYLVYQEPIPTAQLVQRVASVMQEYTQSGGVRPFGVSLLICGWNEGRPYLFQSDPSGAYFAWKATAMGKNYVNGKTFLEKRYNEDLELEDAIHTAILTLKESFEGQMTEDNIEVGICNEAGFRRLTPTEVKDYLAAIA
PPO3: PPO3 (Agaricus bisporus, UniProt C7FF04)
Chain of UniProt C7FF04 (whole entry, looked up): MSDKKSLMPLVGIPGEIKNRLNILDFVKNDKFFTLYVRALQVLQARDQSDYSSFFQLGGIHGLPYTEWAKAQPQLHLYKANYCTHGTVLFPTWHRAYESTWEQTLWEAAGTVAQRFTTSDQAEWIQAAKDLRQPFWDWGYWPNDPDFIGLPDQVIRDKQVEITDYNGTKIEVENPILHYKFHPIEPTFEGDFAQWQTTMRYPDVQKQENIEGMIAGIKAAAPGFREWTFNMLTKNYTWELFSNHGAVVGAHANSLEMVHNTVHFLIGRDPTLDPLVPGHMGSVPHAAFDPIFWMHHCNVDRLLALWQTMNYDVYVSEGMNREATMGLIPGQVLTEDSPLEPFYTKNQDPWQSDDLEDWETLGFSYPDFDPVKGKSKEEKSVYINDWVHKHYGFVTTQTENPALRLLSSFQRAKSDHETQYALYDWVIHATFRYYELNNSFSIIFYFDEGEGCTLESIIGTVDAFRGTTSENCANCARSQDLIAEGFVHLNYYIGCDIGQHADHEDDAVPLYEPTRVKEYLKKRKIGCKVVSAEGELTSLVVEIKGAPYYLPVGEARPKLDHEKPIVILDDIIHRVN
CES3: Carboxylesterase 3 (CES3, Homo sapiens, UniProt Q6UWW8)
Chain of UniProt Q6UWW8 (whole entry, looked up): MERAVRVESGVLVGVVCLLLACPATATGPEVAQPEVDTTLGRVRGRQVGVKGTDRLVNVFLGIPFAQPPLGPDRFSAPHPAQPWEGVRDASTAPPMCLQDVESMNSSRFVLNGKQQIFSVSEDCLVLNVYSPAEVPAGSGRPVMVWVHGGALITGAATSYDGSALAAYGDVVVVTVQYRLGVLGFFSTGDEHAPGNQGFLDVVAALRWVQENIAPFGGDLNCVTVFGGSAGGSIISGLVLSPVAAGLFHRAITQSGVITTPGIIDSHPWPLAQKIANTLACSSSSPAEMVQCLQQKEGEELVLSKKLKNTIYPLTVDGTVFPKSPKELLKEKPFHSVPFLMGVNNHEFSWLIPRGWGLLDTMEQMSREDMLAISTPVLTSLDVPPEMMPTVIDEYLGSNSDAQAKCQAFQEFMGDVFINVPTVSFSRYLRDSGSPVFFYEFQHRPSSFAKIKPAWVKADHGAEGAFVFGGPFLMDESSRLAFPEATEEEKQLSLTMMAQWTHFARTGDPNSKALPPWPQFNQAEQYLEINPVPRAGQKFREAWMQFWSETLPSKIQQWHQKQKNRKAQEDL
T1: dsDNA; GCGCATATGCGC
T2: DNA G4 pilE G-quadruplex (Neisseria gonorrhoeae); GGGTGGGTTGGGTGGG
Chain of UniProt P20236 (whole entry, looked up): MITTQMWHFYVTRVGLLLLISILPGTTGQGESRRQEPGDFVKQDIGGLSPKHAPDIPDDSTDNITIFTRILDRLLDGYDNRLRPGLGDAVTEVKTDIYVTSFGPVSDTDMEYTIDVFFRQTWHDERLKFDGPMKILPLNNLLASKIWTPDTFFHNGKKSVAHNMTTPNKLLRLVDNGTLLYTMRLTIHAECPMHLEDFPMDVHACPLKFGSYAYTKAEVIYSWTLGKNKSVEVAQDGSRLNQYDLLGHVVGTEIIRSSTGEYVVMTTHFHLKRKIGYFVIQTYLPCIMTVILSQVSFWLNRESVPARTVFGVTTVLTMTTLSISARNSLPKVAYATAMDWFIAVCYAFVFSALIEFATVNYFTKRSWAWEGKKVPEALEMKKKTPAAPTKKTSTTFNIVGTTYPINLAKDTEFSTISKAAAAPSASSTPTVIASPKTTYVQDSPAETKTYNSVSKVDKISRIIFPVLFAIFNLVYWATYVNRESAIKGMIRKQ
Chain of UniProt Q04828 (whole entry, looked up): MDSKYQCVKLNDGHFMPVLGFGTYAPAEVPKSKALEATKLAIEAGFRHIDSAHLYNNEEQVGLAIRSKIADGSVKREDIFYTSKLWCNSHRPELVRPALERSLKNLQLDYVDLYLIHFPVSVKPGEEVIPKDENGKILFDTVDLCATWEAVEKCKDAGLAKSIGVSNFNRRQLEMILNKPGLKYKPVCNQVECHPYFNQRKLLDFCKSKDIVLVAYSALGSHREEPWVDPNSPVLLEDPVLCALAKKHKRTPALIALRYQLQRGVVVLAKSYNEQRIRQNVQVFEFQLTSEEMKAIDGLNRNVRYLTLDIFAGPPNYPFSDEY
Chain of UniProt P61981 (whole entry, looked up): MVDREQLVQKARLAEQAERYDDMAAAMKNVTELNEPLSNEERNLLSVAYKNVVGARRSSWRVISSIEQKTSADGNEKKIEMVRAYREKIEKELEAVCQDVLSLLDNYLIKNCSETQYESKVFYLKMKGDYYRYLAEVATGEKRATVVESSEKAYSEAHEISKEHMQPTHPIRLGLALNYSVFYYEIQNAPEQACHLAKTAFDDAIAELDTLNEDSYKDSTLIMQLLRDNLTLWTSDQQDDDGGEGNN
Chain of UniProt Q04609 (whole entry, looked up): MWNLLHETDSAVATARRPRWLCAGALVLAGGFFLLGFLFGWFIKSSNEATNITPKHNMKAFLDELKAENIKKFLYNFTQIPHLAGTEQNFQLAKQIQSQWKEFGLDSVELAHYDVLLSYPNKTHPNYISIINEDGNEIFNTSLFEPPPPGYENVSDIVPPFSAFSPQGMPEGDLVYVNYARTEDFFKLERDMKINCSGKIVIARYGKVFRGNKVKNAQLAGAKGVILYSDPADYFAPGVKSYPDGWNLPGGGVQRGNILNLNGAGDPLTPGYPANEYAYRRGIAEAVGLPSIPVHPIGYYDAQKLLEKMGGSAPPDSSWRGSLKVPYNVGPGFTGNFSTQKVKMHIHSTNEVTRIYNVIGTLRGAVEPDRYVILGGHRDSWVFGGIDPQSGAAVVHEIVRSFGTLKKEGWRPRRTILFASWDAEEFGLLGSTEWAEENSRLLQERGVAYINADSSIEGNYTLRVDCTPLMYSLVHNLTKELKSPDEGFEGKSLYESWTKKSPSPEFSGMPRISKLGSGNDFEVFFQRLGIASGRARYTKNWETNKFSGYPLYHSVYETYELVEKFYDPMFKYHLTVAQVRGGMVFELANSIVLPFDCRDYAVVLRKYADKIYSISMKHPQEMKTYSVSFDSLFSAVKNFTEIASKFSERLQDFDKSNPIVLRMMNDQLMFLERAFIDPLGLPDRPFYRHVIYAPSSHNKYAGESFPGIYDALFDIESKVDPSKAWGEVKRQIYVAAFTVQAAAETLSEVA
Chain of UniProt Q8WTV0 (whole entry, looked up): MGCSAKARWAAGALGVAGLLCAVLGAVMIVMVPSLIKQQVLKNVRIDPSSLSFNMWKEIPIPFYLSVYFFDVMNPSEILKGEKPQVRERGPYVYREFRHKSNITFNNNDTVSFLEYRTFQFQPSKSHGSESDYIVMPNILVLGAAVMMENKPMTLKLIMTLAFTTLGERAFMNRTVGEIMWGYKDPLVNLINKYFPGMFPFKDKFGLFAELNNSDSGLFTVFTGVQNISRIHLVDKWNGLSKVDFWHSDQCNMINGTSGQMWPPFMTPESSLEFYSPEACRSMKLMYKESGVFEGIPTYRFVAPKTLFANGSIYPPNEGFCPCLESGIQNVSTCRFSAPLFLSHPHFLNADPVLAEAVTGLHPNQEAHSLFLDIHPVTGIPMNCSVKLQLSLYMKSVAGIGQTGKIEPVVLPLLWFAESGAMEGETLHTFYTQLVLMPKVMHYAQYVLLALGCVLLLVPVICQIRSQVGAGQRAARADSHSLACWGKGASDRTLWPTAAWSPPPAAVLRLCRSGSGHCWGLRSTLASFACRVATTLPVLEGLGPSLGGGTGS
Chain of UniProt P63138 (whole entry, looked up): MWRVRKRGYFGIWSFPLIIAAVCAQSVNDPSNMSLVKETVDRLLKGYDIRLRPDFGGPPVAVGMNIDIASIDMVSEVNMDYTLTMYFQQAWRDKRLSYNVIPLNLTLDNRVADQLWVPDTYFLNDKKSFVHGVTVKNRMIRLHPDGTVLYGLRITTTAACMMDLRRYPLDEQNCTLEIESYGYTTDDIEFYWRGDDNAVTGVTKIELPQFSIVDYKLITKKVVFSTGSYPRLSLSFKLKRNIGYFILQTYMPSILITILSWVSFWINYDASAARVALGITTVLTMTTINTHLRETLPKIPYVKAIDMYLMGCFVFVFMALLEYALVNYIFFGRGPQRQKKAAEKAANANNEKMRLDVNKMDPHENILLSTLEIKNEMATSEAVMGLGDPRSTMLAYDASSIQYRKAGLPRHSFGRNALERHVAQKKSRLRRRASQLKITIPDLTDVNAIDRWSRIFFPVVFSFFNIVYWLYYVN
Chain of UniProt P32239 (whole entry, looked up): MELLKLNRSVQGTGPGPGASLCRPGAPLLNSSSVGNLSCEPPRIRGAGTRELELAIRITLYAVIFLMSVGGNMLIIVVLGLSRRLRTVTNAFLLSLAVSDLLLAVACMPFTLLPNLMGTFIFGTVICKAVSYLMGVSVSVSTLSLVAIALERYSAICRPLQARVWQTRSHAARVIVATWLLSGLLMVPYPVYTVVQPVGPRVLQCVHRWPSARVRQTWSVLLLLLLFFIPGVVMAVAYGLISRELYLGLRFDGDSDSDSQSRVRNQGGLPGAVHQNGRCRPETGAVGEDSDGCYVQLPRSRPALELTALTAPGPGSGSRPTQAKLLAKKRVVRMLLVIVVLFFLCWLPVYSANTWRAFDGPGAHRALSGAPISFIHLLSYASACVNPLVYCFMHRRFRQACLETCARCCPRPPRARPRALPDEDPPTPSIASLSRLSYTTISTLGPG

Structure (SMILES)	target	assay	system	setting	how to read	endpoint	result
COC(=O)[C@@H](CS)N1C(=O)c2ccc(N(C)C)cc2C1=O	Metallo-beta-lactamase VIM-2 (VIM-2, Escherichia coli, UniProt Q5U7L7)	–	–	10 µM, with: 3 equivalents protein, 10 µM ZnSO4	–	fluorescence increase	6.9 fold
COc1ccc2[nH]c(-c3cccc(F)n3)nc2c1	Core-binding factor subunit beta, with RUNX1 Runt domain (Homo sapiens, UniProt Q13951)	protein binding, inhibitor, FRET	–	concentration not given, with: Runt domain	–	activity class	inactive
[123I]c1ccc2nc(-c3ccc(-n4ccnn4)nc3)cn2c1	Amyloid-beta precursor protein, amyloid-beta (APP, Homo sapiens, UniProt P05067)	SPECT	healthy controls, Temporal cortex	120 to 210 min	reference: cerebellum	SUVR	0.85 ± 0.07
Cn1nnc(CN)c1C(F)(F)F	Dual specificity protein phosphatase 3 (DUSP3, Homo sapiens, UniProt P51452)	ligand-observed 19F NMR	–	concentration not given, with: DUSP3 4 or 8 µM	–	binding	active
CC(=O)N[C@H](C(=O)N[C@@H](CC(C)C)C(=O)N[C@@H](CC(=O)O)C(=O)N[C@@H](CO)C(=O)N[C@@H](Cc1ccccc1)C(=O)N[C@@H](CCCCN)C(=O)N[C@H](C(=O)N[C@@H](CO)C(=O)N[C@@H](Cc1ccccc1)C(=O)N[C@@H](CC(C)C)C(=O)N[C@@H](CO)C(=O)N[C@@H](C)C(=O)N[C@@H](CC(C)C)C(=O)N[C@@H](CCC(=O)O)C(=O)N[C@@H](CCC(=O)O)C(=O)N[C@@H](Cc1ccc(O)cc1)C(=O)N[C@H](C(=O)N[C@@H](CCCCN)C(=O)N[C@@H](CCCCN)C(=O)N[C@@H](CC(C)C)C(=O)N[C@@H](CC(N)=O)C(=O)N[C@H](C(=O)N[C@@H](CCC(N)=O)C(N)=O)[C@@H](C)O)[C@@H](C)O)C(C)C)C(C)C	Scavenger receptor class B member 1 (SCARB1, Homo sapiens, UniProt Q8WTV0)	–	BHK transfected with SCARB1	18 h	–	cholesterol efflux	no effect
Cc1cc(=O)oc2cc(NC(=O)CCCCCCCC(=O)NO)ccc12	Histone deacetylase 8 (HDAC8, Homo sapiens, UniProt Q9BY41)	ITC	Tris-HCl buffer	concentration not given, pH 7.5, 25 °C	–	binding stoichiometry	0.8 ± 0.1
CC[C@H](C)[C@H](NC(=O)[C@H](C)NC(=O)[C@H](CC(=O)O)NC(=O)[C@H](CC(C)C)NC(=O)[C@@H](NC(=O)[C@H](CCCCN)NC(=O)[C@H](CCCCN)NC(=O)[C@@H](NC(=O)[C@H](CCC(=O)O)NC(=O)[C@H](CCC(=O)O)NC(=O)[C@H](CCC(=O)O)NC(=O)[C@H](CO)NC(=O)[C@H](CC(C)C)NC(=O)[C@H](CC(=O)O)NC(=O)[C@H](CC(C)C)NC(=O)CNC(=O)[C@H](CCCNC(=N)N)NC(=O)[C@H](CC(C)C)NC(=O)[C@H](CO)NC(=O)CNC(=O)CNC(=O)CNC(=O)CCCC[C@@H]1SC[C@@H]2NC(=O)N[C@@H]21)C(C)C)[C@@H](C)CC)C(=O)N[C@H](C(=O)N[C@@H](CCCCN)C(=O)N[C@@H](CC(=O)O)C(=O)O)C(C)C	Fab B11 antibody (human)	binding, biolayer interferometry	–	–	reference: alanine mutant over wild type	Kd ratio	1.2
COc1ccc(-c2ocnc2-c2cc(Br)c(OC)c(OC)c2)cc1OCCCC(=O)NO	Histone deacetylase 2 (HDAC2, Homo sapiens, UniProt Q92769)	inhibitor, fluorogenic	–	IC50 and twice IC50	reference: untreated	enzyme activity	no effect
CC(C)CN(CC(C)C)C(=O)/C=C/C=C/c1ccc2c(c1)OCO2	Gabra3/Gabrb2 (Rattus norvegicus, UniProt P20236+P63138)	GABA current potentiation, positive modulator, two-electrode voltage clamp	Xenopus oocytes expressing α3β2	with: GABA EC3-7	–	Hill coefficient	0.9 ± 0.2
Cc1ncsc1-c1ccc([C@@H]2CCCCNC(=O)C[C@@H]3N=C(c4ccc(cc4)OCCCCC(=O)N[C@@H](C(C)(C)C)C(=O)N4C[C@H](O)C[C@H]4C(=O)N2)c2c(sc(C)c2C)-n2c(C)nnc23)cc1	Bromodomain-containing protein 4, long isoform (BRD4, Homo sapiens, UniProt O60885)	degrader, immunoblotting, measured: BRD4 long isoform	PC-3	10 nM, 24 h	–	degradation	15%
C#CCOCCOc1ccc(-c2ncc[nH]2)cc1NC(=O)C#Cc1ccccc1	Transitional endoplasmic reticulum ATPase (VCP, Homo sapiens, UniProt P55072)	covalent inhibitor, in-gel fluorescence labelling	recombinant protein	–	–	kinact/KI	163000 M⁻¹ s⁻¹
O=c1c2ccccc2n(CC2CC2)c(=O)n1O	Flap endonuclease 1 (Homo sapiens, UniProt P39748, R100A)	substrate binding, fluorescence anisotropy	–	100 µM, with: DF1 substrate, Mg2+	reference: Ca2+ condition	relative KD	10 fold
NS(=O)(=O)c1ccc(-n2nc(C(F)(F)F)cc2-c2ccc(F)cc2F)cc1	Prostaglandin G/H synthase 1 (Canis lupus familiaris, UniProt Q8HZR1)	TXB2 formation, inhibitor	dog whole blood	clotting	–	Hill coefficient	1.7
O=C(O)Cc1cccc(O)c1	p-hydroxyphenylacetate 3-hydroxylase, reductase component (C1-hpah, Acinetobacter baumannii, UniProt Q6Q271)	ITC	–	pH 7	–	ΔH	-18.9 ± 2.21 kcal/mol
Cc1cc(N2CC[C@@](C#N)(C3(C)CC3)C2=O)cc(C(=O)NCc2cc(F)cc(-c3cnn(C)c3)c2)n1	Proline--tRNA ligase (Plasmodium falciparum, UniProt Q8I5R7)	thermal shift	–	with: L-proline 2 mM	–	melting temperature	81.5 °C
O=C(CCn1c2ccccc2c2ccccc21)N(c1ccc(F)cc1)c1ccc(F)cc1	Proteasome subunit alpha type-2/Proteasome subunit alpha type-6 20S proteasome	proteolysis, activator, fluorogenic peptide	purified 20S proteasome	up to 30 µM, with: Suc-LLVY-AMC, Z-LLE-AMC, Boc-LRR-AMC	reference: vehicle	maximum fold increase	5.8 ± 1.4
CCCC[C@H](NC(=O)CNC(=O)[C@@H]1CCCN1C(=O)CNC(=O)[C@@H]1CCCN1C(=O)CNC(=O)[C@@H]1CCCN1C(=O)[C@H](Cc1c[nH]c2ccccc12)NC(=O)[C@H](CCCNC(=N)N)NC(=O)[C@@H](Cc1ccccc1)NC(=O)[C@H](Cc1c[nH]cn1)NC(=O)[C@H](CCC(=O)O)NC(=O)[C@H](CCCC)NC(=O)[C@H](CO)NC(C)=O)C(=O)NCC(=O)N[C@@H](Cc1c[nH]c2ccccc12)C(=O)N[C@@H](CCCC)C(=O)N[C@@H](CC(=O)O)C(=O)N[C@@H](Cc1ccccc1)C(N)=O	CCKBR/MC4R (Homo sapiens, UniProt P32239+P32245)	bivalent binding	cells expressing CCK2R and MC4R	with: Eu-DTPA-CCK-8	reference: single- over dual-expressing cells	IC50 ratio	8 fold
C[n+]1c(C=Cc2ccc(O)c(C=Cc3sc4ccccc4[n+]3C)c2)sc2ccccc21	T1, dsDNA	fluorescence enhancement	–	–	–	binding	binds weakly
CC(C)C[C@H](NC(=O)[C@H](CCCNC(=N)N)NC(=O)[C@@H](N)CS)C(=O)N[C@@H](CC(N)=O)C(=O)O	PPO3	enzyme activity, inhibitor	–	25 µM	–	remaining activity	86.7%

Structure (SMILES)	target	assay	system	setting	how to read	endpoint	result
CCCCCCCC(=O)Nc1ccc(OC)nc1C	CES3	substrate	–	50 µM, pH 8, 37 °C, enzyme purity 3%	–	specific activity	6 pmol/min/µg
O=C(Cn1c2ccccc2c2ccncc21)N(c1ccc(F)cc1)c1ccc(F)cc1	Proteasome subunit alpha type-2/Proteasome subunit alpha type-6 20S proteasome	proteolysis, activator, fluorogenic peptide	purified 20S proteasome	up to 30 µM, with: Suc-LLVY-AMC, Z-LLE-AMC, Boc-LRR-AMC	reference: vehicle	maximum fold increase	5.5 ± 2.2
CCc1cc(C)nc2c(CC(=O)N(CC)CC)c(-c3ccc(OCC[18F])cc3)nn12	Translocator protein (Tspo, Rattus norvegicus, UniProt P16257)	two-tissue compartment model	rat C6 glioma model, brain	60 min dynamic PET	–	k3 rate constant	0.727 ± 0.161 min⁻¹
CC1CC(C)(C)N(C(=O)CN2C(=O)c3ccccc3C2=O)c2ccc(C(=O)N3CCN(C(=O)CCC4=[N+]5C(=Cc6ccc(-c7ccc[nH]7)n6[B-]5(F)F)C=C4)CC3)cc21 (stereo not shown)	Mucolipin-1 (MCOLN1, Homo sapiens, UniProt Q9GZU1)	BRET	HEK293T	1.3 and 0.67 µM	–	dissociation rate constant	0.00333 ± 0.00167 s⁻¹
Oc1c(C(Nc2nc3ccccc3s2)c2cccc(OCc3ccccc3)c2)ccc2cccnc12 (stereo not shown)	Genome polyprotein, NS2B-NS3 protease (Dengue virus type 2, UniProt P14340)	enzyme activity, inhibitor	–	0.1% CHAPS, with: Bz-Nle-Lys-Arg-Arg-AMC substrate	–	Hill slope	1.05 ± 0.05
C=CC(C)(C)OC[C@H]1O[C@H](O[C@@H]2C3=C([C@H](C)COC(C)=O)C[C@H](O)[C@]3(C)/C=C3/[C@@H](COC)CC[C@H]3[C@@H](C)[C@H]2O)[C@H](O)[C@@H](OC(C)=O)[C@@H]1O	14-3-3 protein gamma, with p65 peptide (YWHAG, Homo sapiens, UniProt P61981)	binding, 2D fluorescence anisotropy titration	–	range over 0 to 250 µM, with: 100 nM peptide	–	cooperativity factor	5
CC1=N/C(=C\c2cc3cc4c5c(c3oc2=O)CCCN5CCC4)C(=O)N1C	T2, DNA G4 pilE G-quadruplex (Neisseria gonorrhoeae)	fluorescence titration	–	pH 7.4, K+ 100 mM	–	Kd	1480 nM
COc1ccccc1-c1cc(C(F)(F)F)nc(S(=O)(=O)CCCC(=O)Nc2ccc(F)cc2F)n1	Glucagon-like peptide 1 receptor (Rattus norvegicus, UniProt P32301)	cAMP accumulation, positive allosteric modulator	INS-1 832/13	25 µM, with: GLP-1(9-36)	–	efficacy increase	105%
O=C([O-])CN(CCN(CC(=O)[O-])Cc1cc(CCC(=O)NCCCCCC(=O)NCCCC[C@H](NC(=O)N[C@@H](CCC(=O)O)C(=O)O)C(=O)O)ccc1O)Cc1cc(CCC(=O)O)ccc1[O-].[68Ga+3]	Glutamate carboxypeptidase 2 (FOLH1, Homo sapiens, UniProt Q04609)	PET/CT	prostate cancer patients, bone metastases	–	reference: bone metastases over liver	tumour-to-normal tissue ratio	11.3 ± 10.7
C[C@@]12CC[C@@H]3c4cc(I)c(O)c(I)c4CC[C@H]3[C@@H]1CCC2=O	Aldo-keto reductase family 1 member C1 (AKR1C1, Homo sapiens, UniProt Q04828)	enzyme activity, inhibitor, absorbance	–	100 µM, pH 9	–	inhibition	77.5%
CCC(NC(=O)c1cccc(-c2ccc(C)nc2N)c1)c1ccnn1C (stereo not shown)	DNA dC->dU-editing enzyme APOBEC-3B, C-terminal domain (Homo sapiens, UniProt Q9UH17)	binding, 1H CPMG NMR	–	20 µM protein	–	signal attenuation	33.7 ± 3.4%
COc1ccc(S(=O)(=O)n2nc(OC(=O)c3ccccc3)cc2N)cc1	Genome polyprotein, NS2B-NS3 protease (dengue virus type 2, UniProt P29990)	ESI-TOF MS	–	20 µM, 1 h, 25 °C	reference: DMSO control	protein mass shift	104 Da
CC1=C(/C=C/C=C\C=C\C(C)=C\C=O)C(C)(C)CCC1	Rhodopsin, apoprotein (opsin) (RHO, Bos taurus, UniProt P02699)	regenerated pigment stability, thermal shift, BFC probe	ROS disk membranes	–	–	melting temperature	70.1 °C
CC(C)C[C@H](NC(=O)[C@H](CC(N)=O)NC(=O)[C@H](CCC(=O)O)NC(=O)[C@@H](N)CS)C(=O)O	PPO3	enzyme activity, inhibitor	–	200 µM	–	remaining activity	38%
C=C1C(=O)O[C@@H]2[C@H]3C(CO)=CC(=O)C3=C(C)C[C@H](O)[C@@H]12	Alpha-glucosidase MAL12 (MAL12, Saccharomyces cerevisiae S288c, UniProt P53341)	fluorescence quenching	–	310 K	–	binding free energy	-5.69 kcal/mol
COC(=O)[C@@]1(C)C=C(C(=O)Nc2cccc(C(=O)Nc3ccc(Nc4nccc(-c5cccnc5)n4)c(C)c3)c2)C(=O)CC1	Non-receptor tyrosine-protein kinase TNK1 (TNK1, Homo sapiens, UniProt Q13470)	enzyme activity, inhibitor, radiometric	–	1 µM	–	activity vs control	44%
CCCCCCCCCC(=O)Nc1ccc(OC)nc1C	CES3	substrate	–	50 µM, pH 8, 37 °C, enzyme purity 3%	–	specific activity	10 pmol/min/µg
CC(=O)N1CCC[C@H]1C(=O)N[C@@H](CC(C)C)C(=O)NCC(=O)N[C@@H](CC(C)C)C(=O)N[C@@H](CCCNC(=N)N)C(=O)N[C@@H](CO)C(=O)N[C@@H](CCCCN)C(=O)O	Matrix metalloproteinase-9 (MMP9, Homo sapiens, UniProt P14780)	substrate, HPLC	–	500 µM, 72 h, pH 7.5, 37 °C	–	hydrolysis product	71%

Repeated from above:
Structure (SMILES)	target	assay	system	setting	how to read	endpoint	result
NS(=O)(=O)c1ccc(-n2nc(C(F)(F)F)cc2-c2ccc(F)cc2F)cc1	Prostaglandin G/H synthase 1 (Canis lupus familiaris, UniProt Q8HZR1)	TXB2 formation, inhibitor	dog whole blood	clotting	–	Hill coefficient	1.7
O=C(O)Cc1cccc(O)c1	p-hydroxyphenylacetate 3-hydroxylase, reductase component (C1-hpah, Acinetobacter baumannii, UniProt Q6Q271)	ITC	–	pH 7	–	ΔH	-18.9 ± 2.21 kcal/mol
Cc1cc(N2CC[C@@](C#N)(C3(C)CC3)C2=O)cc(C(=O)NCc2cc(F)cc(-c3cnn(C)c3)c2)n1	Proline--tRNA ligase (Plasmodium falciparum, UniProt Q8I5R7)	thermal shift	–	with: L-proline 2 mM	–	melting temperature	81.5 °C
O=C(CCn1c2ccccc2c2ccccc21)N(c1ccc(F)cc1)c1ccc(F)cc1	Proteasome subunit alpha type-2/Proteasome subunit alpha type-6 20S proteasome	proteolysis, activator, fluorogenic peptide	purified 20S proteasome	up to 30 µM, with: Suc-LLVY-AMC, Z-LLE-AMC, Boc-LRR-AMC	reference: vehicle	maximum fold increase	5.8 ± 1.4
